Experimental data of several laboratories.
Parts stem from different laboratories: compare values within a part only. Substitutions count along the parent as printed.

Series 1
Target: RNA binding protein fox-1 homolog 2, RRM domain, GST-SBP tag (RBFOX2, Homo sapiens, UniProt O43251-10, residues 100-194)
Method: RNA Bind-n-Seq
Molecule type: RNA
Matrix: in vitro
Concentration: 365 nM
Notes: natural RNA segment, single round, ends assumed
Baseline: no-protein control
Reading: higher = stronger binding
Endpoint: RBNS enrichment (R)
Constant ends, left off below: GGGAGUUCUACAGUCCGACGAUC … UGGAAUUCUCGGGUGCCAA
Residues (chain): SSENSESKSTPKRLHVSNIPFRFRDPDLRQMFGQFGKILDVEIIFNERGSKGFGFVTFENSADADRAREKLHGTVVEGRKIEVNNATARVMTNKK
Oligonucleotide = UCCUGAAGGUGUAAAAUUGUAAAUAUUUUUAUCUAUGAGUAAAUGUUAAGUAGUUGUUUUAAAAUACUUAAUAAAAUAAUUCUUUUCCUGUGGAAGAGAAAGAUGGUCUC; result = 0.948
Oligonucleotide = GACCAGGACGGGUAGAGGCCUCUGCUAAAGAGCCCGGAUGCAGCGUCUUCCGUGGGACUGUCCCCAAGGCUGAGGCUCCUGCCAAGUCCUAGGGGCCUCUGUACCUGCCC; result = 0.243
Oligonucleotide = UUUAAUGUAAUCAAGAAAUUCAAGCUGAAGAGAUGUAACAUUGGUUCUGUAUAAUUGAUAGUACAAGUGUGGACCCUUAUAUUUCUAACAGUUCAUUGCUUUGGAAUGGC; result = 0.385
Oligonucleotide = UCCCUCCAACGUGGUCCUCUUCCUGGCUGGAGGUGCUGGAUUCUGACUGCCAUCUUGCUCCAUGGUGGCUCUUCUGGCCUGGGACCCGGUCCACAGGAAGGGCUAGGAGC; result = 0.318
Oligonucleotide = UAAUAUGUAUGACCAAUGUAGCCAUUGCUUUAAAAUGUACCGUGUAAAUAUAAACACAUCCUAUCAGUCGCUGGCUUUGGGGUAUUUGUCUGGCAGGAGACGAGGUGAUG; result = 0.352
Oligonucleotide = GGUGGCACCACCAUGGUUACAGCGGAUGCCCCGAGACUCUGCUUGGUAAACGUGGCAGAGCAGAAUGGGAGGCUGGACCCUGAGGAAGGGCCCCUCUCCUGGCAUCUGUC; result = 0.46
Oligonucleotide = AUUGACUGGGAGCAUGGCCAGGCAUCUCCAGGUUCUAAGCUUUGGGAAGCUACACUUCCAAGUUGCUGUGGCUUCACUGCUAAGAAGAGAGUGAGUGAUGGUCUUGGAAA; result = 2.04
Oligonucleotide = AAGUUGGGCUCAUCUUCCAGGGAGCAAACCUAAAGCUGGCAGUCAGCCGCCCUGGCUAGAGGCCUGCAGUGGAUGAGCGCAAAGUGCCCGGCCACAGCCCCCUCCCUUUA; result = 0.21

Series 2
Target: Sal-like protein 4, full length isoform B (SALL4, Homo sapiens, UniProt Q9UJQ4-2, residues 1-616)
Method: universal PBM
Molecule type: double-stranded DNA, one strand shown
Matrix: in vitro
Concentration: not given
Notes: 8-mer, flanks averaged, mean of replicates
Reading: higher = stronger binding
Endpoint: E-score
Construct (chain): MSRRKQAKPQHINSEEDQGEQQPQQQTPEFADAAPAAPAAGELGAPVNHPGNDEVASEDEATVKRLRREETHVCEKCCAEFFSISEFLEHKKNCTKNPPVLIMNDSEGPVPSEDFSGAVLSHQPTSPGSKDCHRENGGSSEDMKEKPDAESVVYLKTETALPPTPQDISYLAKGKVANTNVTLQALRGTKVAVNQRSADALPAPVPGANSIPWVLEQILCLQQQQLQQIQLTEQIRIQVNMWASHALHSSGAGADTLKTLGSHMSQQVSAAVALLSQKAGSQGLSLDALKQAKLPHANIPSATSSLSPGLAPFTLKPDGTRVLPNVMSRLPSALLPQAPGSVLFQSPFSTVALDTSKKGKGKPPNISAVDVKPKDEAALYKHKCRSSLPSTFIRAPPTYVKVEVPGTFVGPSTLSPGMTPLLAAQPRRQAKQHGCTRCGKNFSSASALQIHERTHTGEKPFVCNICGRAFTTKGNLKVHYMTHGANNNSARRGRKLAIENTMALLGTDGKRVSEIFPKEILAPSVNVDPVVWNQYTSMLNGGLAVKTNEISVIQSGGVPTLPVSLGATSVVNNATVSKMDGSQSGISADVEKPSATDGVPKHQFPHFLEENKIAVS
Oligonucleotide = CTGTGCCC; result = -0.221
Oligonucleotide = ACGGGCCA; result = -0.198
Oligonucleotide = AGGCTGGC; result = -0.286
Oligonucleotide = CTACAACC; result = 0.109
Oligonucleotide = AGGGACCG; result = -0.3
Oligonucleotide = AGAGGGCT; result = -0.223
Oligonucleotide = CTTGCGAA; result = 0.0296
Oligonucleotide = AACCGTCC; result = -0.0581
Oligonucleotide = AAGCGAAC; result = -0.128
Oligonucleotide = AGGAGCTC; result = -0.184
Oligonucleotide = ACCATTAC; result = 0.15
Oligonucleotide = GGTGGGCA; result = 0.0456
Oligonucleotide = TGCCTAAA; result = -0.00652
Oligonucleotide = TGTTAAAA; result = 0.265
Oligonucleotide = ATGTTGAA; result = 0.201
Oligonucleotide = GGCCGGAA; result = -0.169
Oligonucleotide = GGCGCCCC; result = -0.431
Oligonucleotide = AACGGTAA; result = 0.0747
Oligonucleotide = CACCCACA; result = -0.205
Oligonucleotide = GTCCGGCA; result = -0.191
Oligonucleotide = GCGCTTCC; result = -0.175
Oligonucleotide = CAGCAATA; result = 0.163
Oligonucleotide = AGTTCCGC; result = -0.195
Oligonucleotide = CAATACAG; result = 0.119
Oligonucleotide = ACGACGCT; result = -0.108

Series 3
Target: Interferon regulatory factor 5, full length, phosphomimetic (IRF5, Homo sapiens, UniProt Q13568-2, residues 1-514, S451D/S453D/S456D/S462D)
Method: protein-binding microarray
Molecule type: double-stranded DNA, one strand shown
Matrix: in vitro
Concentration: 940 nM top
Notes: 60-bp whole probe
Added: salmon DNA 0.4 mg/ml
Baseline: random background probes
Reading: higher = stronger binding
Endpoint: fitted relative affinity
Constant ends, left off below: GCCTAGCAC … GTCTTGATTCGCTTGACGCTGCTG
Oligonucleotide = GACGGTTTCGGTATCGGGAGGTGCTAG; result = 13.3 z-score
Oligonucleotide = TTAGCACTGAGTATCGATTAGTGCTAG; result = 4.1 z-score
Oligonucleotide = TTAGGTCTCGGACTCGGTTAGTGCTAG; result = 1.01 z-score
Oligonucleotide = TTAGAACTGAGTATCGACTAGTGCTAG; result = 1.97 z-score
Oligonucleotide = TCAGGTCTGGATGTGCCACTGTGCTAG; result = -0.387 z-score
Oligonucleotide = CTCTCTTTCCAACTCTGTTTGTGCTAG; result = 1.77 z-score
Oligonucleotide = GACGAACTCAGTTTCGAGACGTGCTAG; result = 3.94 z-score
Oligonucleotide = GTGTTTCTCAGTTTATTTATGTGCTAG; result = 2.34 z-score
Oligonucleotide = TTAGGATTCGGTTTCGGTTAGTGCTAG; result = 8.84 z-score
Oligonucleotide = TTAGATTTAGGGTTTCGATTAGTGCTA; result = 4.16 z-score
Oligonucleotide = TTAGGTCTCGGTATCGGTTAGTGCTAG; result = 7.21 z-score
Oligonucleotide = TTAGATATCAATATCGATTAGTGCTAG; result = 0.375 z-score
Oligonucleotide = TCATGGTTCCCATTCCAACTGTGCTAG; result = 0.344 z-score
Oligonucleotide = TTAGGTATCCTACTGCTTCAGTGCTAG; result = 0.0146 z-score
Oligonucleotide = TCACAAGTCTTGTTTTACACTGTGCTA; result = 0.382 z-score
Oligonucleotide = GACGGTCTTCTTTTCCTGACGTGCTAG; result = 1.03 z-score

Series 4
Target: ABI1, truncated, D143A, DHFR fusion (Arabidopsis thaliana)
Method: DHFR PCA, deep sequencing
Matrix: yeast
Notes: methotrexate growth selection, single substitutions
Added: (+)-ABA 1.4 µM
Baseline: wild-type fitted maximum
Reading: higher = stronger binding
Endpoint: relative binding score
Starting sequence: PYL1, truncated, DHFR fusion (Arabidopsis thaliana); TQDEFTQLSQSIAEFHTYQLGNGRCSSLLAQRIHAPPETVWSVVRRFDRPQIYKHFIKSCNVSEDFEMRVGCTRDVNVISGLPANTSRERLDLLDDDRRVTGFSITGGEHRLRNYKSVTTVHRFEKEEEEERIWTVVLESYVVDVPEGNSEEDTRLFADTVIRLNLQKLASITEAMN
Change = V143K; result = -9.45%
Change = F5K; result = 9.32%
Change = N165D; result = 23.4%
Change = G108L; result = -7.94%
Change = D144G; result = 2.8%
Change = H55T; result = 75.1%
Change = I12K; result = -0.912%
Change = N77Q; result = 74.4%
Change = I57S; result = -3.05%
Change = R132I; result = 48.1%
Change = R88T; result = 66.9%
Change = R163V; result = 15.2%
Change = R90M; result = 8.61%
Change = S117R; result = -11.9%
Change = V62T; result = 28.7%
Change = P50D; result = -8.31%
Change = D97L; result = 30.3%
Change = R24E; result = 44%
Change = M68K; result = 6.09%
Change = S59M; result = -1.38%
Change = R49E; result = 42.8%
Change = D75I; result = 76.2%
Change = R88L; result = 39.3%
Change = N77S; result = 70.3%
Change = V145K; result = -25.7%
